Measured values of several laboratories.
Every numbered part comes from another study and shows a few of its results, in no order. “And” joins repeats or separate records; there may be more than shown.
UniProt P21709, sequence (whole entry, looked up): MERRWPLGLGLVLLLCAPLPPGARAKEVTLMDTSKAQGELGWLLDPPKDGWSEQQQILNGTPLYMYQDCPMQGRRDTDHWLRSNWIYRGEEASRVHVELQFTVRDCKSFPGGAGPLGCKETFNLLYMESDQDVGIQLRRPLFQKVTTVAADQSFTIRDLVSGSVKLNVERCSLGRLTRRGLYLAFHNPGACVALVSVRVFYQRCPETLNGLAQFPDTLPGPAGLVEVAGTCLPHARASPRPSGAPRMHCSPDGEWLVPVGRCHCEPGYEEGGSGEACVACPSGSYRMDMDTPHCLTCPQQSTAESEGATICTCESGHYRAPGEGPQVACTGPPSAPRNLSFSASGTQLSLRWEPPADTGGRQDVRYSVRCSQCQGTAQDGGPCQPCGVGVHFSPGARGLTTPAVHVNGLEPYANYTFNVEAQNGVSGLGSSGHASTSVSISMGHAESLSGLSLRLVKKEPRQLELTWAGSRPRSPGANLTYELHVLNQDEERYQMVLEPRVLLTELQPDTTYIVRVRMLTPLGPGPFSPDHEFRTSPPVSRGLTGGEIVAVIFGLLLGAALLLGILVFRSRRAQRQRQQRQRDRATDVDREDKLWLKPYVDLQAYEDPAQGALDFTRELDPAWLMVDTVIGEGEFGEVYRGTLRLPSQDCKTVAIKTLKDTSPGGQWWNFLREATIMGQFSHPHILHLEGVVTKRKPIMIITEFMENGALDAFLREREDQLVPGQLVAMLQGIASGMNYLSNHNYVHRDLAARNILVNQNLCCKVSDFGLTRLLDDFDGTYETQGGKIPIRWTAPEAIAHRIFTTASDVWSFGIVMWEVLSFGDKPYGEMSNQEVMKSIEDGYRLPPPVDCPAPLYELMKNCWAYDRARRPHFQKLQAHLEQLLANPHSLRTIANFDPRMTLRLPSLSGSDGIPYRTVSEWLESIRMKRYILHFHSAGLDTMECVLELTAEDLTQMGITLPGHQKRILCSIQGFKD
UniProt P14616, sequence (whole entry, looked up): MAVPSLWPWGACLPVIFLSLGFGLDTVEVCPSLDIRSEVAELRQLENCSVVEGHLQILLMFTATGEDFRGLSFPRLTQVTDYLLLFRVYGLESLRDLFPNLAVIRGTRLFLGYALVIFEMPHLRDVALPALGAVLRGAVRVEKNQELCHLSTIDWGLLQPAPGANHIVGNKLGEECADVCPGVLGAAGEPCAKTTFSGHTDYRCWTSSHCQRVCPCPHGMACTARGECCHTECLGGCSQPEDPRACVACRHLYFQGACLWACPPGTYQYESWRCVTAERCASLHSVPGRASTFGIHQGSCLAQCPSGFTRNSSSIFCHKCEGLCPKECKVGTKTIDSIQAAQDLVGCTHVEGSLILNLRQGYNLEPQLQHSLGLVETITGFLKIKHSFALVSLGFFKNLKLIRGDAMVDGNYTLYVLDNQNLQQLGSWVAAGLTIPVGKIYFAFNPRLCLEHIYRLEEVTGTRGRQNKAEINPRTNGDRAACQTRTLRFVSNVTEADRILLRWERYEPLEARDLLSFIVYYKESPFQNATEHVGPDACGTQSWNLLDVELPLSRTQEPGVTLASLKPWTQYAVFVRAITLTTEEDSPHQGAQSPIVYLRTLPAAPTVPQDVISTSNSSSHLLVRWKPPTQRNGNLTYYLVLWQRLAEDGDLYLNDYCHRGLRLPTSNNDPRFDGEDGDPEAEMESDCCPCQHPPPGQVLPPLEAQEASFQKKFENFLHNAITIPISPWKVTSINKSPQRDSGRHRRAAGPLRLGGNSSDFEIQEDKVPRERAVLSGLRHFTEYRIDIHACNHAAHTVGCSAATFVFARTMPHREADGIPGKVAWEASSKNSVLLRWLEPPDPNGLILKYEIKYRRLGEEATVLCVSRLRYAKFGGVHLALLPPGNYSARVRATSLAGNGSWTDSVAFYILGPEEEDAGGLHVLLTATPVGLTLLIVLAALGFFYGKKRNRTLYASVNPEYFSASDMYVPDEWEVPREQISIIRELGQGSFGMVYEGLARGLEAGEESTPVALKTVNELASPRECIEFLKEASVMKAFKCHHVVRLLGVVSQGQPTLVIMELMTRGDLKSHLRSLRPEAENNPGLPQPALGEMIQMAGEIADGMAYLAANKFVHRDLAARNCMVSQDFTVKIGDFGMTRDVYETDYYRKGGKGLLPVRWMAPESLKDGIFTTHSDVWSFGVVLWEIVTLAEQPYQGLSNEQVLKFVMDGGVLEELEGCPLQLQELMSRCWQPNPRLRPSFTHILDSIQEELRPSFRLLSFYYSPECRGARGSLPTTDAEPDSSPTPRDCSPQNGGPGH
UniProt P51957, sequence (whole entry, looked up): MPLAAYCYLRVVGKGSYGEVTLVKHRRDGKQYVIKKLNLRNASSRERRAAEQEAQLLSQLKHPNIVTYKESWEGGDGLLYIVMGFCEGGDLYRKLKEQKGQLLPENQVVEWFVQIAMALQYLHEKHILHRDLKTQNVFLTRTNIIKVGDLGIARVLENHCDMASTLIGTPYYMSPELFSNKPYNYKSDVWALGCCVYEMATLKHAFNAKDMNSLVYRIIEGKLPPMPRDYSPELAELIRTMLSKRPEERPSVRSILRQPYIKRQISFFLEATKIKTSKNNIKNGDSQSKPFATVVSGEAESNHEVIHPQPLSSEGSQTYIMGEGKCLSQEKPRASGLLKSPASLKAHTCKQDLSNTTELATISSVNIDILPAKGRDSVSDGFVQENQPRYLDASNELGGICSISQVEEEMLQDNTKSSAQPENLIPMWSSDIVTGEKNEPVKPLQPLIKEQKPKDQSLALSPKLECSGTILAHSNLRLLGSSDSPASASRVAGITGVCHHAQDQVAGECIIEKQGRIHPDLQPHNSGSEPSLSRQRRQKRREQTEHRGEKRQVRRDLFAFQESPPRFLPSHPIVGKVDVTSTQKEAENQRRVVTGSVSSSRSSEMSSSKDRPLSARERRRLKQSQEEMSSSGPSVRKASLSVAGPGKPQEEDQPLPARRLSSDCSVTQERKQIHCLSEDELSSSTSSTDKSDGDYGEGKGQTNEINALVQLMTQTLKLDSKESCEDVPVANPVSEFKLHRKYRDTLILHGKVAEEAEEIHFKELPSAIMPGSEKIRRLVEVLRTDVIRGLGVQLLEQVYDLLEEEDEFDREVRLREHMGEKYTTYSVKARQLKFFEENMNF
UniProt Q09013, sequence (whole entry, looked up): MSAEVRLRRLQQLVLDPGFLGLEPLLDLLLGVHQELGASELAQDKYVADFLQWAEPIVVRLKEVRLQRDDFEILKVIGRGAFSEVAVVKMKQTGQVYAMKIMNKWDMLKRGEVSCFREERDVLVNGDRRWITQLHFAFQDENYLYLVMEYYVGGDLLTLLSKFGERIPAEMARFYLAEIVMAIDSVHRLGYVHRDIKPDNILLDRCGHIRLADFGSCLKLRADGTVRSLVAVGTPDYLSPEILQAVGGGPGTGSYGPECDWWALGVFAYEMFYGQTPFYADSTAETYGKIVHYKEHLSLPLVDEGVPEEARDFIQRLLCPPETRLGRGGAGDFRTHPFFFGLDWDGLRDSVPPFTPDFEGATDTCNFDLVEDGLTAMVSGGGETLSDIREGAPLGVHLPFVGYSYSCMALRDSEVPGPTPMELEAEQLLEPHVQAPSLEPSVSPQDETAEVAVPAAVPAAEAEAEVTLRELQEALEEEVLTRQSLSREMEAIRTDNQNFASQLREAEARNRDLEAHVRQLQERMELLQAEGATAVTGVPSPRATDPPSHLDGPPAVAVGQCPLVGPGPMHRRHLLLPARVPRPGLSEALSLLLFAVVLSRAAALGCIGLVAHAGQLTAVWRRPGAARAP
UniProt Q9HBH9, sequence (whole entry, looked up): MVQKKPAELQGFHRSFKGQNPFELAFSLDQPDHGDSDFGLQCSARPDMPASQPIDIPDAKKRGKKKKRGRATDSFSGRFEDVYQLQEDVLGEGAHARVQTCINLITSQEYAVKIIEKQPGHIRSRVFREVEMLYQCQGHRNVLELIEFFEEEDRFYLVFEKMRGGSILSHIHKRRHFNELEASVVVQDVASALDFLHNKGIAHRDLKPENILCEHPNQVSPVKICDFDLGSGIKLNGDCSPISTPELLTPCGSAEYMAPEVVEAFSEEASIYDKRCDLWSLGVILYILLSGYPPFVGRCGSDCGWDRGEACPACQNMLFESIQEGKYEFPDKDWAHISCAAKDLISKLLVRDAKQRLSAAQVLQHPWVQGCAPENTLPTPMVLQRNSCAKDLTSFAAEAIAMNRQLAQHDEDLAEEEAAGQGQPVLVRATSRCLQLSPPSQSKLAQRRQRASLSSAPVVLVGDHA
UniProt Q96Q40, sequence (whole entry, looked up): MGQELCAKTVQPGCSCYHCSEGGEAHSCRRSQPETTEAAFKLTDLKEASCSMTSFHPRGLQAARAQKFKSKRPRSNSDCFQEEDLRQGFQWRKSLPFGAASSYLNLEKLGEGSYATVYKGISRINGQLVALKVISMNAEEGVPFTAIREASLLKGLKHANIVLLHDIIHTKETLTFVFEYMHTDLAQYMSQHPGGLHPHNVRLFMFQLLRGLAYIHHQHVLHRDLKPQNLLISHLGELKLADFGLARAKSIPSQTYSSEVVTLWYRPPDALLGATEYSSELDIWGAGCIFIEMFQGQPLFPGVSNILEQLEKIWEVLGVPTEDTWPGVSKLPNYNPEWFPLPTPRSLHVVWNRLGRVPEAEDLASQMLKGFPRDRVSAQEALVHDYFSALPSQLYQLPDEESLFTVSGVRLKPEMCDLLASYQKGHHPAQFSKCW
UniProt Q52WX2, sequence (whole entry, looked up): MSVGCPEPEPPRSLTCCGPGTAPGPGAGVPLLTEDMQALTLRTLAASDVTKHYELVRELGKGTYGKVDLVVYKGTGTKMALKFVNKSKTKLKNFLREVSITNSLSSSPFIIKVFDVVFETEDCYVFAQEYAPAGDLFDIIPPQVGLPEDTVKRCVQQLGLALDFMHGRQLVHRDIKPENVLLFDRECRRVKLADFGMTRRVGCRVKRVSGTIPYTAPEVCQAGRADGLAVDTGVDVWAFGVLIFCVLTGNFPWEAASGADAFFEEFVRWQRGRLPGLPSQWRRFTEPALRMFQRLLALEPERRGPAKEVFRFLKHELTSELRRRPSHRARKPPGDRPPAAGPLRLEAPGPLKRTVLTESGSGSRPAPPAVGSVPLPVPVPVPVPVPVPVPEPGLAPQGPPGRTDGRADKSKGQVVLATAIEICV

Study 1
SMILES: N#CC1(c2ccccn2)CCN(Cc2cc(C(=O)N3CCCC3)c(=O)n3ccccc23)CC1
Effect on: cell-free assay
Method: competition with immobilised ligand
Concentration: 1 µM
target | remaining binding
Macrophage colony-stimulating factor 1 receptor, autoinhibited (CSF1R, Homo sapiens, UniProt P07333) | 86%
CDK17 (Homo sapiens, UniProt Q00537) | 82%
LIM domain kinase 2 (LIMK2, Homo sapiens, UniProt P53671) | 82%
CDK15 (Homo sapiens, UniProt Q96Q40) | 85%
INSRR (Homo sapiens, UniProt P14616) | 93%
MKNK2 (Homo sapiens, UniProt Q9HBH9) | 96%
ALK (Homo sapiens, UniProt Q9UM73, C1156Y) | 100%
EGFR (Homo sapiens, UniProt P00533, L858R) | 87%
WNK4 (Homo sapiens, UniProt Q96J92) | 81%
MAPKAPK2 (Homo sapiens, UniProt P49137) | 84%
NEK4 (Homo sapiens, UniProt P51957) | 88%
CSNK2A2 (Homo sapiens, UniProt P19784) | 98%
WNK3 (Homo sapiens, UniProt Q9BYP7) | 94%
DMPK (Homo sapiens, UniProt Q09013) | 90%
EPHA1 (Homo sapiens, UniProt P21709) | 83%
PLK1 (Homo sapiens, UniProt P53350) | 100%
SBK1 (Homo sapiens, UniProt Q52WX2) | 89%

Study 2
Host: human
Medium: microsomes or S9
Concentration: 2 µM
Time: 0.5 h
SMILES | remaining compound [%]
Cc1nn2c(nnc3c(=O)n(-c4nnc[nH]4)ccc32)c1-c1ccccc1 | 63
CC(=O)Nc1nc2ccc(-c3nn(Cc4cc5ccccc5nc4-c4ccccc4C)c4nc(N)ncc34)cc2s1 | 22.2
NC(N)=NC(=O)c1cc2cc(Br)ccc2s1 | 83
CN(Cc1cccc2cnccc12)c1cnccn1 | 32.7
CCN(CCCNC(=O)CN1C(=O)c2cccnc2Oc2ccc(C)cc21)c1cccc(C)c1 | 0.0233
CS(=O)(=O)N1N=C(c2cccs2)CC1c1ccc2nccnc2c1 (stereo not shown) | 34.7
O=C(c1ccccc1)c1c[nH]c(C(c2ccccc2)c2ccc(C(c3ccccc3)c3cc(C(=O)c4ccccc4)c[nH]3)o2)c1 (stereo not shown) | 47.8
CCOCCOC1CCN(S(=O)(=O)c2cn(C)cn2)CC1 | > 99
CC(=O)c1cc(-c2nccn2CCn2[nH]c(=O)ccc2=O)cs1 | > 99.9

Study 3
Target: Ephrin type-A receptor 1 (EPHA1, Homo sapiens, UniProt P21709)
Effect on: enzyme activity
Mode: inhibitor
Concentration: 0.5 µM
Baseline: control
SMILES | remaining activity [%]
COc1ccc(COc2ccc(Cc3cnc(N)nc3N)cc2OC)cc1 | 85.8
O=C1NC(=O)c2c1c1c3ccccc3[nH]c1c1[nH]c3cc(Br)ccc3c21 | 98.1
O=C(c1cc2cc(O)ccc2[nH]1)c1cc2cc(O)ccc2[nH]1 | 81.1
CCCCc1c(-c2ccc(OC)cc2)[nH]c2nccnc12 | 67.9
c1ccc2c(-c3ccncc3)c[nH]c2c1 | 105
O=C1Nc2ccc(Br)cc2/C1=C/c1cc2c([nH]1)CCCC2 | 93.1
O=c1cc(N2CCOCC2)oc2c(-c3ccccc3)cccc12 | 101
O=Nc1c(-c2c(O)[nH]c3cc(Br)ccc23)[nH]c2ccccc12 | 98.5
O=C1Cc2c([nH]c3ccc(Br)cc23)-c2ccccc2N1 | 100
COc1cccc(-c2cc(=O)c3ccccc3o2)c1N | 99.7
CCCNC(=O)Nc1ccc(Oc2ncnc3cc(OC)c(OC)cc23)cc1Cl | 96.9
N#Cc1cnc2cnc(NCc3cccnc3)cc2c1Nc1ccc(F)c(Cl)c1 | 94.5
O=C1NC(=O)c2c1c1c3ccccc3[nH]c1n1cncc21 | 72.4

Other studies, line by line
Compound | host | medium | route | dose | endpoint | value
COc1ccc(-c2c(Nc3ccccn3)[nH]c3c(C4=CCCCC4)c(-c4ccccc4)nn3c2=O)cc1 | human | plasma | oral | 400 mg once daily | elimination rate constant | 0.0307 h⁻¹ and 0.0382 h⁻¹ and 0.0305 h⁻¹ and 0.0747 h⁻¹

A few entries again (study 3):
SMILES | remaining activity [%]
CCCCc1c(-c2ccc(OC)cc2)[nH]c2nccnc12 | 67.9
c1ccc2c(-c3ccncc3)c[nH]c2c1 | 105
O=C1Nc2ccc(Br)cc2/C1=C/c1cc2c([nH]1)CCCC2 | 93.1
O=c1cc(N2CCOCC2)oc2c(-c3ccccc3)cccc12 | 101
O=Nc1c(-c2c(O)[nH]c3cc(Br)ccc23)[nH]c2ccccc12 | 98.5
O=C1Cc2c([nH]c3ccc(Br)cc23)-c2ccccc2N1 | 100
